{"data": "Measurements pooled from the literature", "note": "A part holds a random share of what one study measured. Substitutions count along the parent as printed."}
{"data": "Study 1", "target": "ABI1, truncated, D143A, DHFR fusion (Arabidopsis thaliana)", "technique": "DHFR PCA, deep sequencing", "medium": "yeast", "setting": "methotrexate growth selection, single substitutions", "with": "(+)-ABA 0.032 µM", "relative to": "wild-type fitted maximum", "direction": "higher = stronger binding", "starting sequence": "PYL1, truncated, DHFR fusion (Arabidopsis thaliana); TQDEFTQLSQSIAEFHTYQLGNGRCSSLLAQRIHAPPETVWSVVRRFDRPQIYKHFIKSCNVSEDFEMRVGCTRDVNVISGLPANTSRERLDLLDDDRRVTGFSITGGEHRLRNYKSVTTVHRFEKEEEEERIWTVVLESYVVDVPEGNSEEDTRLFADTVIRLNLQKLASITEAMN"}
{"Variant": "R123K", "relative binding score": "54.3%"}
{"Variant": "E127C", "relative binding score": "29.1%"}
{"Variant": "E38S", "relative binding score": "6.47%"}
{"Variant": "I33G", "relative binding score": "1.44%"}
{"Variant": "E174D", "relative binding score": "0.243%"}
{"Variant": "R88N", "relative binding score": "4.49%"}
{"Variant": "C72E", "relative binding score": "15%"}
{"Variant": "A13I", "relative binding score": "5.22%"}
{"Variant": "Q10C", "relative binding score": "7.45%"}
{"Variant": "L156K", "relative binding score": "-2.82%"}
{"Variant": "R46P", "relative binding score": "-1.43%"}
{"Variant": "D3Y", "relative binding score": "28.1%"}
{"Variant": "M68I", "relative binding score": "25.5%"}
{"data": "Study 2", "target": "Ras GTPase-activating protein-binding protein 1, full length (G3BP1, Homo sapiens, UniProt Q13283)", "technique": "RNA Bind-n-Seq", "form": "RNA", "medium": "in vitro", "concentration": "200 nM", "setting": "whole 134-nt RNA, ends assumed", "with": "150 mM KCl", "relative to": "input library", "direction": "higher = stronger binding", "all sequences stand within": "GGGAGUUCUACAGUCCGACGAUC … UGGAAUUCUCGGGUGUCAAGG", "UniProt Q13283, sequence (whole entry, looked up)": "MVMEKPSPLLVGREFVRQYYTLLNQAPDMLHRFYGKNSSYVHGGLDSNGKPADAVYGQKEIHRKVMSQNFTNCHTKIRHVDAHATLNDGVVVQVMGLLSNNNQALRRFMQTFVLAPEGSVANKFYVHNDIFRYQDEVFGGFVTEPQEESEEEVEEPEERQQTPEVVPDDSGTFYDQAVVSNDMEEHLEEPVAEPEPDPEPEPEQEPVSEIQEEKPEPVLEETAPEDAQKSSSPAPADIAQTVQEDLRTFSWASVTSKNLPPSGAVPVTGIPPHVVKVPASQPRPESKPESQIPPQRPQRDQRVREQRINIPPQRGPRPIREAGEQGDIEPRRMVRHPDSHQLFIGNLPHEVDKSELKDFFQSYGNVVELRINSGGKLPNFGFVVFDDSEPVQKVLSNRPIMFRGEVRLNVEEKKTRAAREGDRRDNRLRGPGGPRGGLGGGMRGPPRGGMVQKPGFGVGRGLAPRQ"}
{"Sequence": "UCCUCCCUGGCUUCAGCCAGUCCCUGACGCUGAGCACUGGCUUCCGAGUCAUCAAGAAGAAGCUGUACAGCUCGGAACAGCUGCUCAUUG", "log2 enrichment": -1.05}
{"Sequence": "CACAGACAACACGCACCCACACAGACACAGAGGGAAGGGGUUGGGAUGGGGACAGGGUGCACAGCAGCGCGGGGUAGGACCCCAGCCCCU", "log2 enrichment": 1.94}
{"Sequence": "CACAGACAACACGCACCCACACAGACACAGAAGGAAGGGGUUGGGAUGGGGACAGGGUGCACAGCAGGGCGGGGUAGGACCCCAGCCCCU", "log2 enrichment": 1.75}
{"Sequence": "GCAGGAAGUAAAAACAAAUGGAAAUGCUUCGGAUAAAGGCAGGGGUGGGGGUUGCUAAGGAAAGGGUGGGAUGGGAGUGGGUAAAGAGUU", "log2 enrichment": 0.99}
{"Sequence": "UUGAUGCCCCAGAUGUGGAUGUUCAUGGCCCAGACUGGCACCUGAAGAUGCCUAAGAUGAAAAUGCCCAAGUUCAGCAUGCCUGGCUUCA", "log2 enrichment": 0.697}
{"Sequence": "UCCUGUGCUACACAUCGUAUGUACCGAAUCAAACCCCCAAAUUUUUUUAAACCCCCAAAAAAGUAUUAUGUUACGCCGUUCGGAUCUGCA", "log2 enrichment": -0.271}
{"Sequence": "UCAAGUCCUGUGCUACACAUCGUAUGUACCGAAUCGGUUUGGGGUUUGGGUUUGGAAAGUAUUAUGUUACGCCGUUCGGAUCUGCACUUC", "log2 enrichment": -0.695}
{"Sequence": "UCAAGUCCUGUGCUACACAUCGUAUGUACCGAAUCGGGAAAGGGUUUGGGUGGGAAAGUAUUAUGUUACGCCGUUCGGAUCUGCACUUCC", "log2 enrichment": 1.11}
{"Sequence": "CACAGACAACACGCACCCACACAGACACAGAGGGAAGGGGUCGGGAUGGGGACAGGGUGCACAGCAGGGCGGGGUAGGACCCCAGCCCCU", "log2 enrichment": 1.88}
{"Sequence": "UCCUGUGCUACACAUCGUAUGUACCGAAUCGGGGUUUUUUUGGGGAAAAAGGGGAGGGGAAAGUAUUAUGUUACGCCGUUCGGAUCUGCA", "log2 enrichment": 0.746}
{"Sequence": "UUAGGAAGAGAAGACAAGGUGGCCUCUCAUUAGAAGAAGAGGAAGAGGAGGAUGCCAAUUCAGAAUCUGAGGGAAGCAGUAGUGAGGAGG", "log2 enrichment": -0.912}
{"Sequence": "AGUCCUGUGCUACACAUCGUAUGUACCGAAUCGGGGUGGGGUGGGGAAAAAAAGGGGAAAGUAUUAUGUUACGCCGUUCGGAUCUGCACU", "log2 enrichment": 0.388}
{"Sequence": "AUGGACUUGCACAUGAUGAACUGUGAACUUCUAGCCACAUGUAGUGCCCUUGGGUACUUGGAGGGAGACACUUACCAUAAGGAACCAGAU", "log2 enrichment": -0.892}
{"Sequence": "UGGGAGUUGGAUUUUGUUUAUUUUUUUAGCUCAUUUCCAGGGGUGGGAAUUUUUUUUUAAUAUGUGUCAUGAAUAAAGUUGUUUUUGAAA", "log2 enrichment": -1.06}
{"data": "Study 3", "target": "CCND3, cyclin fold, Cln2 fusion (human)", "technique": "yeast growth competition, sequencing", "medium": "yeast", "setting": "weak parent motif", "relative to": "not given", "direction": "higher = stronger binding", "starting sequence": "EXO1 docking peptide (human); KPECGRVQRAIFQ"}
{"Variant": "KAECGRVQRAIFQ [P2A]", "normalised enrichment score": 0.605}
{"Variant": "KPECARVQRAIFQ [G5A]", "normalised enrichment score": -0.017}
{"Variant": "KPECGAVQRAIFQ [R6A]", "normalised enrichment score": 0.0696}
{"Variant": "KPACGRVQRAIFQ [E3A]", "normalised enrichment score": 0.123}
{"Variant": "KPECGRAQRAIFQ [V7A]", "normalised enrichment score": 0.296}
{"Variant": "KPECGRVQRAIFA [Q13A]", "normalised enrichment score": 0.153}
{"data": "Study 4", "target": "RNA binding protein fox-1 homolog 2, RRM domain, GST-SBP tag (RBFOX2, Homo sapiens, UniProt O43251-10, residues 100-194)", "technique": "RNA Bind-n-Seq", "form": "RNA", "medium": "in vitro", "concentration": "365 nM", "setting": "natural RNA segment, single round, ends assumed", "relative to": "no-protein control", "direction": "higher = stronger binding", "all sequences stand within": "GGGAGUUCUACAGUCCGACGAUC … UGGAAUUCUCGGGUGCCAA", "Target sequence (chain)": "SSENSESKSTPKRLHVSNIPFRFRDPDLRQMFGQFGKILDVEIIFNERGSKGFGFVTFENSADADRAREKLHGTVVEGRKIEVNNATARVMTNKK"}
{"Sequence": "CUCAGUCAAGUCCUGAUCCAUUUCGUCAUGAAGAGAGCAGGACCUUUCCAUUCUAUGAAGGGUGCGUGUUUCUGGUUUCCAGCAGCAGGAUAACAAGUGGGAAUUUACUC", "RBNS enrichment (R)": 0.265}
{"Sequence": "UGUGGGUGAGGGGCUCAAGGCCCCCCUGGAGGACCUUGGUCUCGAAGCCAUACGUGGUUGUCUGCCUUCCUGAGCAAGGCUUCUCAUCCCAUAUUAAAGGAUCAUCAUCA", "RBNS enrichment (R)": 0.25}
{"Sequence": "GUAGGACAAAGUUGUCACAGGUUUUUGUUGUUGUUUUUAUUGCCCCCAAAAUUACAUGUUAAUUUCCAUUUAUAUCAGGGAUUCUAUUUACUUGAAGACUGUGAAGUUGC", "RBNS enrichment (R)": 2.18}
{"Sequence": "ACCUGGGCCACUCAGAGACCUCAGUGGGACUGGGAGAGUGGAGGGAACUACAUCAGCGCCCACACUGGACCACAGACGGAGGCAGAUGAGGGCUCCAAGGCCGGAAGUCC", "RBNS enrichment (R)": 0.22}
{"Sequence": "UUUUAAAAGAAGGAAAUUAAGACAUGAUUUUUCUCUAGAUUUUCUUCACUUCAGUCUUUCUACUAACCUCGUAAAAACCAUGGCUUCCAUUUGCUUUAUUUGUGCAAAUG", "RBNS enrichment (R)": 0.493}
{"Sequence": "AUGGUGUAUCUCUCUGUGUAAUGGUGAGCCAUGCUGCAAGGUUGUAGCCUUGGCCCGAAGACAGAAAAUUCUCUCUGCCCUGCUGUAUCAUAAAGCACACACUUAGUGCC", "RBNS enrichment (R)": 0.216}
{"Sequence": "CAUUCUUAACCAAGGCUGCCUCUUCCAACAGGGCGGGAAUCAGACCUACUCCCCUAGGUCACAACUCUGGGAAGGAUACAGAGCCCCCACCCUUCACUGAGUUCUCUGGA", "RBNS enrichment (R)": 0.251}
{"Sequence": "CAGCCUUCUCUUGGGAACAGCCGGGGCCAGGACUGGGUCACCUAUGAGCUGAAUCAGCAUCUCCUCCUGAGUCCCAGGGCCCCUGCAGUUCCCAGUCUCUUCUGUCCUGC", "RBNS enrichment (R)": 0.318}
{"Sequence": "AGAUUUGUGUUGAACGAAAACAUUGUGGUUUGGAAAGGAGAAUUCAACAAUUAAUAGUUGAAAUUGUGAGGUUAAUGUUUAAAAAGCUUUACACCUGUUUACAAUUUGGG", "RBNS enrichment (R)": 1.01}
{"Sequence": "GCCAGGUCCAGUGGCCUGGGGUCCCACUGCUGAGGGCACCUGCCAGGCCUCACUCCACCCUGAAUGGACUCGAGCCAUGUAUUCAUUCAGUAAACUGACAUUAUUCUCCC", "RBNS enrichment (R)": 0.456}
{"Sequence": "UGGACACCAGUGACCAUGCACAGUUGUGUUCCUUGCAUUCUAAGUCAGUGGAGGGAAGCAGAGCUUUGAGUGACACACGAGUGUUGGGGUUUCCUGCUGCCUGCCCUGGC", "RBNS enrichment (R)": 0.755}
{"Sequence": "CACUGACUGCAAACUGUCUCUUGCUCCUGAACUUCAAUAGCUGCCUUCCUCACCGCAGAUGUCUGUCUCCGAGAUCUGCAACCGUCUUGCUGACUAGGGCUUGGGCUAGA", "RBNS enrichment (R)": 0.779}
{"data": "Study 5", "target": "Histone acetyltransferase KAT6A, winged helix 2, GST fusion (KAT6A, Homo sapiens, UniProt Q92794, residues 85-181)", "technique": "protein binding microarray", "form": "double-stranded DNA, one strand shown", "medium": "in vitro", "concentration": "not given", "setting": "8-mer, flanks averaged, mean of 2 arrays, mostly near background", "relative to": "not given", "direction": "higher = stronger binding", "Residues (chain)": "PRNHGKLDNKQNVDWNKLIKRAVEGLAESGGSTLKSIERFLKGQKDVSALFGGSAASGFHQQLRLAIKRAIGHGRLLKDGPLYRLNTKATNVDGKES"}
{"Sequence": "CGGGCTCA", "E-score": 0.017}
{"Sequence": "CAGTGAAA", "E-score": 0.149}
{"Sequence": "ACGCAAAC", "E-score": 0.0729}
{"Sequence": "CCCATTGC", "E-score": 0.0896}
{"Sequence": "GGTATGAC", "E-score": -0.0919}
{"Sequence": "CCCTACTC", "E-score": 0.0251}
{"Sequence": "ACTTGAGA", "E-score": -0.115}
{"Sequence": "CGCGACCA", "E-score": 0.148}
{"Sequence": "ACCCCGTA", "E-score": -0.0917}
{"Sequence": "TCCCTCCA", "E-score": -0.0186}
{"Sequence": "ACCAGGTG", "E-score": -0.0751}
{"Sequence": "GAATGATC", "E-score": -0.0259}
{"Sequence": "AACAAATC", "E-score": 0.0473}
{"Sequence": "CCTAGACA", "E-score": -0.089}
{"Sequence": "ACGGGCCC", "E-score": 0.0498}
{"Sequence": "AAGGCGGA", "E-score": 0.217}
{"Sequence": "GGGCGCAA", "E-score": 0.258}
{"Sequence": "GTGTGTAA", "E-score": -0.114}
{"data": "Single results of other studies"}
{"Substance": "PhoQ, residues 284 288 289 292 302 303 TTCLQL", "target": "PhoP, residues 12 14 15 18 19 VQALL (Escherichia coli, UniProt P23836)", "test": "Sort-seq, item: YFP reporter", "test system": "E. coli", "conditions": "PhoQ-PhoP variant library, with: 10 µM Mg2+", "scale": "relative to: high Mg2+ state, higher = stronger signaling", "endpoint": "fold induction", "value": 2.58}
